Measured values of several laboratories.
Compare with care: the assays were run in different laboratories. ± gives the spread as reported.
UniProt P20813, sequence (whole entry, looked up): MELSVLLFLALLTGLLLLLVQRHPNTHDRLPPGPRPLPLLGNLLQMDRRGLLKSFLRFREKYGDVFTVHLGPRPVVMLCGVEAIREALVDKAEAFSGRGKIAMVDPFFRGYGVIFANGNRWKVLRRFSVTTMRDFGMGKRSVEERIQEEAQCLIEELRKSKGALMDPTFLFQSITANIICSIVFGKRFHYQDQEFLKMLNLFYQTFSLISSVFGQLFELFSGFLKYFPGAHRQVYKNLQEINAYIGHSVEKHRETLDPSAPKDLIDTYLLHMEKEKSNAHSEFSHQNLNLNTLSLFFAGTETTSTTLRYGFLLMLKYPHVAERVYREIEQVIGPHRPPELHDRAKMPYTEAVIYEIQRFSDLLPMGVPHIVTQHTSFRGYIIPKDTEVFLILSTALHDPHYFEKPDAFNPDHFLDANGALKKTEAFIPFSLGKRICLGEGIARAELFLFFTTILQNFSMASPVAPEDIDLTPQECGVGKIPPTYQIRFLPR
UniProt Q9HCP0, sequence (whole entry, looked up): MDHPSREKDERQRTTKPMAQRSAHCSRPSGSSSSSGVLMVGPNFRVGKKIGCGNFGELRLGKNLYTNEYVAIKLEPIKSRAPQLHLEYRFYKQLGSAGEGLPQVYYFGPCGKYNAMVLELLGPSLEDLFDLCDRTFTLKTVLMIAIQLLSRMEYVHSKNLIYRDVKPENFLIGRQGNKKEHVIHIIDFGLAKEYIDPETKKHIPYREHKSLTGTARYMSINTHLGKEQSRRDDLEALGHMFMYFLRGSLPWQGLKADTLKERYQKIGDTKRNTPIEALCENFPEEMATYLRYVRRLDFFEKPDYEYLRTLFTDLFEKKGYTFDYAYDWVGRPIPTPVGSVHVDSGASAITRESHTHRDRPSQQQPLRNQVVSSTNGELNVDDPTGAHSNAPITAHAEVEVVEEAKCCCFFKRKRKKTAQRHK

Structure (SMILES) | target or system | assay | system | conditions | scale | endpoint | result
Cc1cc(-c2ccc3ccccc3c2)nnc1NCCN1CCN(C)CC1 | Cytochrome P450 2B6 (CYP2B6, Homo sapiens, UniProt P20813) | substrate | recombinant enzyme | 100 nM, 1 h | – | remaining compound | 90%
CCCC[C@H]1C(=O)N(C)[C@@H](CCCC)C(=O)N[C@@H](CCCNC(=O)CN2CCN(CC(=O)O)CCN(CC(=O)O)CCN(CC(=O)O)CC2)C(=O)N[C@H](C(=O)NCC(N)=O)CSCC(=O)N[C@@H](Cc2ccc(O)cc2)C(=O)N(C)[C@@H](C)C(=O)N[C@@H](CC(N)=O)C(=O)N2CCC[C@H]2C(=O)N[C@@H](Cc2c[nH]cn2)C(=O)N[C@@H](CC(C)C)C(=O)N(C)CC(=O)N[C@@H](Cc2c[nH]c3ccccc23)C(=O)N[C@@H](CO)C(=O)N[C@@H](Cc2c[nH]c3ccccc23)C(=O)N1C [gallium-68 labelled] | – | – | NOD/SCID mice with CHO-hPD-L1 xenograft, skin | 60 min post injection | – | tissue uptake | 9.62 ± 2.41 %ID/g
CCOP(=O)(CNC(=O)CN1CCN(CC(=O)NCP(=O)(OCC)OCC)CCN(CC(=O)NCP(=O)(OCC)OCC)CCN(CC(=O)NCP(=O)(OCC)OCC)CC1)OCC.[177Lu+3] | – | – | Sprague-Dawley rat, bone | intravenous (tail vein), dose not given, 2 h | – | tissue uptake | 0.053 ± 0.019 % injected dose/g
CSCC[C@H](NC(=O)CNC(=O)[C@H](CCCCN)NC(=O)[C@H](CC(C)C)NC(=O)[C@@H]1CCCN1C(=O)[C@H](CO)NC(=O)[C@H](Cc1c[nH]cn1)NC(=O)[C@H](Cc1c[nH]c2ccccc12)NC(=O)[C@H](CCCNC(=N)N)NC(=O)[C@H](CC(C)C)NC(=O)[C@H](CCCNC(=N)N)NC(=O)[C@H](Cc1c[nH]c2ccccc12)NC(=O)[C@H](CS)NC(=O)CCCCCNC(=O)CN1CCN(CC(=O)O)CCN(CC(=O)O)CCN(CC(=O)O)CC1)C(=O)O [copper-64 labelled] | – | PET | C57BL/6J mice, B16-F10 tumour, liver | intravenous, 3.5 h | – | tissue uptake | 10.5 ± 0.28 %ID/g
COc1ccccc1-c1n[nH]c2nc(NC3CCN(C(=O)Cc4ccc(F)cc4F)CC3)ncc12 | – | bead binding, competition bead pull-down, measured: LINJ.27.1220 | Leishmania donovani extract | 10 µM | baseline: vehicle | relative abundance | 1.03
O=C1NC2(CC2)COc2ncc(F)cc2[C@H]2COCCN2c2ccn3ncc1c3n2 | – | – | Sprague-Dawley rat, male, serum | oral, 10 mg/kg/day, end of treatment, 4-week subacute toxicity | – | serum total bilirubin | 0.7 ± 0.3 µmol/L
CS(C)(=O)=Nc1ccc(-c2ccc(-c3nc4cc(O[C@@H]5CO[C@H]6[C@@H]5OC[C@H]6O)[nH]c4cc3F)cc2)cc1 | CSNK1G1 (Homo sapiens, UniProt Q9HCP0) | enzyme activity, inhibitor | – | 10 µM | – | inhibition | 12%
C[C@H](O)[C@@H](NC(=O)[C@H]1CCCN1C(=O)[C@@H](CCCCN)NC(=O)[C@@H](CO)NC(=O)[C@@H](Cc1ccc(O)cc1)NC(=O)[C@@H](CC(N)=O)NC(=O)CCOCCOCCOCCNC(=O)CN1CCN(CC(=O)O)CCN(CC(=O)O)CCN(CC(=O)O)CC1)C(=O)N[C@H](CC(=O)O)C(=O)N[C@H](CCCNC(=N)N)C(=O)N[C@H](CCC(N)=O)C(=O)N[C@H](Cc1ccc(O)cc1)C(=O)N[C@H](Cc1c[nH]cn1)C(=O)N[C@H](Cc1ccccc1)C(N)=O [gallium-68 labelled] | – | ex vivo gamma counting | BALB/c nude mouse, U-87 MG xenograft, blood | intravenous, 1.85 MBq, 5 min | – | tissue uptake | 3.89 ± 0.43 %ID/g
CC[C@H](C)[C@H](NC(=O)[C@H](CCCCN)NC(=O)CNC(=O)[C@H](CC(C)C)NC(=O)[C@H](Cc1ccccc1)NC(=O)[C@H](CCCCN)NC(=O)[C@H](CO)NC(=O)[C@H](Cc1ccccc1)NC(=O)[C@H](Cc1c[nH]c2ccccc12)NC(=O)[C@H](CCC(N)=O)NC(=O)[C@@H](NC(=O)[C@H](Cc1ccccc1)NC(=O)CCCCCNC(=O)CN1CCN(CC(=O)O)CCN(CC(=O)O)CCN(CC(=O)O)CC1)C(C)C)C(=O)N[C@@H](CCC(=O)O)C(=O)N1CCC[C@H]1C(=O)N[C@@H](CC(=O)O)C(=O)N[C@H](C(=O)N[C@@H](CO)C(=O)N[C@@H](CCC(N)=O)C(=O)N[C@H](C(=O)N[C@@H](CCC(N)=O)C(=O)N[C@@H](CC(=O)O)C(=O)N1CCC[C@H]1C(=O)N[C@@H](CC(N)=O)C(=O)N[C@@H](CC(=O)O)C(=O)N[C@@H](CCC(N)=O)C(=O)N[C@@H](Cc1ccc(O)cc1)C(=O)N[C@@H](CCC(=O)O)C(=O)N1CCC[C@H]1C(=O)N[C@@H](Cc1ccccc1)C(=O)O)C(C)C)C(C)C [copper-64 labelled] | – | – | C57BL/6 male mouse, tumour-naive, large intestine | 1 h | – | tissue uptake | 5.64 ± 0.8 %ID/g
CN1Cc2cc(Cl)ccc2-n2c(nnc2C2CCN(c3cccc([18F])n3)CC2)C1 | – | – | C57BL/6 mouse male, kidney | intravenous, dose not given, 30 min, with: blocking agent 10 mg/kg | – | tissue uptake | 9.15 ± 2.44 %ID/g
CC[C@H](C)[C@H](NC(=O)[C@H](CCCNC(=N)N)NC(=O)[C@H](CCCCN)NC(=O)[C@H](Cc1ccc(O)cc1)NC(=O)[C@H](CC(=O)O)NC(=O)[C@H](C)NC(=O)CNC(=O)CCOCCOCCOCCNC(=O)CN1CCN(CC(=O)O)CCN(CC(=O)O)CCN(CC(=O)O)CC1)C(=O)N[C@H](C(=O)N[C@H](C(=O)N[C@@H](CCCCN)C(=O)N[C@H](C(=O)N[C@@H](CC(N)=O)C(N)=O)C(C)C)C(C)C)[C@@H](C)O [copper-64 labelled] | – | ex vivo gamma counting | C57BL/6J male mice, B16-F10 tumour, liver | intravenous, 1.85 MBq, 100 min | – | tissue uptake | 4.43 ± 0.134 %ID/g
O=C([O-])CNC(=O)CN1CCN(CC(=O)NCC(=O)[O-])CCN(CC(=O)NCC(=O)[O-])CCN(CC(=O)NCC(=O)[O-])CC1.[177Lu+3] | – | – | Sprague-Dawley rat, heart | intravenous (tail vein), dose not given, 2 h | – | tissue uptake | 0.007 ± 0.003 % injected dose/g
CC(C)C[C@@H](NC(=O)[C@@H](CCCNC(=N)N)NC(=O)[C@@H](Cc1c[nH]cn1)NC(=O)[C@@H](Cc1c[nH]c2ccccc12)NC(=O)[C@@H](Cc1c[nH]cn1)NC(=O)[C@@H](Cc1ccccc1)NC(=O)[C@H](NC(=O)[C@@H](Cc1ccc(O)cc1)NC(=O)CNC(=O)CNC(=O)CCOCCOCCOCCNC(=O)CN1CCN(CC(=O)O)CCN(CC(=O)O)CC1)[C@H](C)O)C(=O)N[C@H](CC(N)=O)C(=O)N1CCC[C@@H]1C(=O)O [gallium-68 labelled] | – | – | C57BL/6 mice, male, lung | intravenous, 1.85 MBq, 60 min, with: blocking antibody | – | tissue uptake | 1.08 ± 0.21 %ID/g

Some of these lines once more:
Structure (SMILES) | target or system | assay | system | conditions | scale | endpoint | result
C[C@H](O)[C@@H](NC(=O)[C@H]1CCCN1C(=O)[C@@H](CCCCN)NC(=O)[C@@H](CO)NC(=O)[C@@H](Cc1ccc(O)cc1)NC(=O)[C@@H](CC(N)=O)NC(=O)CCOCCOCCOCCNC(=O)CN1CCN(CC(=O)O)CCN(CC(=O)O)CCN(CC(=O)O)CC1)C(=O)N[C@H](CC(=O)O)C(=O)N[C@H](CCCNC(=N)N)C(=O)N[C@H](CCC(N)=O)C(=O)N[C@H](Cc1ccc(O)cc1)C(=O)N[C@H](Cc1c[nH]cn1)C(=O)N[C@H](Cc1ccccc1)C(N)=O [gallium-68 labelled] | – | ex vivo gamma counting | BALB/c nude mouse, U-87 MG xenograft, blood | intravenous, 1.85 MBq, 5 min | – | tissue uptake | 3.89 ± 0.43 %ID/g
